# Assay results from different studies.
# Numbered parts are unrelated; each lists some results of a single study. Values joined by “and” are separate records of one study, mostly repeats; a detail may differ.
# Sequence of UniProt P51617 (whole entry, looked up): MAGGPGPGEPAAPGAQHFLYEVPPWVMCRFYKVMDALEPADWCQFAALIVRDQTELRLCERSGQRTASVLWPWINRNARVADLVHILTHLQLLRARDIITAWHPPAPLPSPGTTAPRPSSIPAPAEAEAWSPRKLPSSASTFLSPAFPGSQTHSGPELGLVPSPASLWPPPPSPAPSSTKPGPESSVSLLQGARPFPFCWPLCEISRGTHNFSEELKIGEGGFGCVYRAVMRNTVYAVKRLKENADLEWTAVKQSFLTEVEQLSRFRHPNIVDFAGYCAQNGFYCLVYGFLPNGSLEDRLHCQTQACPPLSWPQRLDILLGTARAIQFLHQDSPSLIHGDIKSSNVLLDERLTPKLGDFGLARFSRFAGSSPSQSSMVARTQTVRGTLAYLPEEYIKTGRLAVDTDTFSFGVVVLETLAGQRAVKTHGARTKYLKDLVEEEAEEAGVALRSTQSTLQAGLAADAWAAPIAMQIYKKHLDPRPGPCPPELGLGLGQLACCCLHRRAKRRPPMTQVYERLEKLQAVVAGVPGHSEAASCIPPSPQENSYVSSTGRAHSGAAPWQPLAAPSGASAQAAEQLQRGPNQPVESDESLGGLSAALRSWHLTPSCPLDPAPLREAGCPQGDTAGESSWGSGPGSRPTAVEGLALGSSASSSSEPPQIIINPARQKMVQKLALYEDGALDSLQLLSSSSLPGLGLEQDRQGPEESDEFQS
# Sequence of UniProt Q8IYT8 (whole entry, looked up): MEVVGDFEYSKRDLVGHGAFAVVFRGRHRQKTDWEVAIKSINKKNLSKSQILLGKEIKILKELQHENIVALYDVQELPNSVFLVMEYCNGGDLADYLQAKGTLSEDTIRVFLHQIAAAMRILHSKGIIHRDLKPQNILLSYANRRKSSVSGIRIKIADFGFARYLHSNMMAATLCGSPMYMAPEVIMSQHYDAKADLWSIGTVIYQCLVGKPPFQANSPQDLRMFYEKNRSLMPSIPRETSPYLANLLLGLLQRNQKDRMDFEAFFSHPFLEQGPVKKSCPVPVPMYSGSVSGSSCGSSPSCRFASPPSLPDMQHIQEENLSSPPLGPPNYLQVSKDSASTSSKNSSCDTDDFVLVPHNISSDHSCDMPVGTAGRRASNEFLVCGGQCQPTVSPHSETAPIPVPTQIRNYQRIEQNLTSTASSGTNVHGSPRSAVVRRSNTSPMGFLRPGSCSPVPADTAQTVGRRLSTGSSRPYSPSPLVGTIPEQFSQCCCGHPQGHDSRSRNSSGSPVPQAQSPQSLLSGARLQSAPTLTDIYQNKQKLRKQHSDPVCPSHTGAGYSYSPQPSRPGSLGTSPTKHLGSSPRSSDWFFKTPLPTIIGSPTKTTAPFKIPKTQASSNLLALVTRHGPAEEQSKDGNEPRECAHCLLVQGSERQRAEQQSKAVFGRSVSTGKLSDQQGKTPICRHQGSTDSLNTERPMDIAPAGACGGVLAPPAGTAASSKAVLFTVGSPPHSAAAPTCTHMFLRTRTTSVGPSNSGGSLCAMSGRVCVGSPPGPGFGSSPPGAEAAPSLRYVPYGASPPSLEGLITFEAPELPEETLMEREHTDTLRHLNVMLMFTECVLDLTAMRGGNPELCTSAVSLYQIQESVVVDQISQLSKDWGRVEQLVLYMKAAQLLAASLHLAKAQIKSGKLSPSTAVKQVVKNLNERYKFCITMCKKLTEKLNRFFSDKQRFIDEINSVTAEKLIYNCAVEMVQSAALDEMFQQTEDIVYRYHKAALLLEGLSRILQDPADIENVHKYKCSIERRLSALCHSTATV
# Sequence of UniProt Q13554 (whole entry, looked up): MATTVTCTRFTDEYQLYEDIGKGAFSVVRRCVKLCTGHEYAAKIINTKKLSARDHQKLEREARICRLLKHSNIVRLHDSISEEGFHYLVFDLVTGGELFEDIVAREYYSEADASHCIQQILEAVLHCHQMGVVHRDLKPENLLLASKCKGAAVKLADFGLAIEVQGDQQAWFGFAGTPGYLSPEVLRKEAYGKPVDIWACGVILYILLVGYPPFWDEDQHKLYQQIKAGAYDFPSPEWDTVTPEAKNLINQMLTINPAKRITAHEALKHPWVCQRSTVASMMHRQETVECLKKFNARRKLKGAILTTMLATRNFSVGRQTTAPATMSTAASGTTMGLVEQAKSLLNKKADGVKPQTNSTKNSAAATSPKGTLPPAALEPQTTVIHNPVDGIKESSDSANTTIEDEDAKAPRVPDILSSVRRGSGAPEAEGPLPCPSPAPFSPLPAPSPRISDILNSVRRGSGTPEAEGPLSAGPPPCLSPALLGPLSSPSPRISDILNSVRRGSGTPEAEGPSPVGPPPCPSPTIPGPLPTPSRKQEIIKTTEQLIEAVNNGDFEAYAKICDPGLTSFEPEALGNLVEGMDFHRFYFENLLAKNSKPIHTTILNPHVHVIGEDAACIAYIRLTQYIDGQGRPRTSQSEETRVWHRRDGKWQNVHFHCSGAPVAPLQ
# Sequence of UniProt P51451 (whole entry, looked up): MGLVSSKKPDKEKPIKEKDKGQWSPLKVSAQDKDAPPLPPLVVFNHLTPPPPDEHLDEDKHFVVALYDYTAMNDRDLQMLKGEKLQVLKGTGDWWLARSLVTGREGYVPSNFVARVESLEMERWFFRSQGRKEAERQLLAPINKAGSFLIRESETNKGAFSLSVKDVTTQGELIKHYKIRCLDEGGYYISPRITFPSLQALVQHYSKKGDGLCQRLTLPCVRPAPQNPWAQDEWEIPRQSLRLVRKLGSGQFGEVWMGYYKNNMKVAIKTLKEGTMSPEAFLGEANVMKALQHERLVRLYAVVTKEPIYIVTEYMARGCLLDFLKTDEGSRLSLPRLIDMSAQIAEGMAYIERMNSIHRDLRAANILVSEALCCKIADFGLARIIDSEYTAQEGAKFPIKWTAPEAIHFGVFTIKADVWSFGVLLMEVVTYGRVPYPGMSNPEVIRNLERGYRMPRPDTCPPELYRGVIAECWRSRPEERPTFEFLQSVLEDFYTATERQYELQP
# Sequence of UniProt P42336 (whole entry, unmodified, looked up): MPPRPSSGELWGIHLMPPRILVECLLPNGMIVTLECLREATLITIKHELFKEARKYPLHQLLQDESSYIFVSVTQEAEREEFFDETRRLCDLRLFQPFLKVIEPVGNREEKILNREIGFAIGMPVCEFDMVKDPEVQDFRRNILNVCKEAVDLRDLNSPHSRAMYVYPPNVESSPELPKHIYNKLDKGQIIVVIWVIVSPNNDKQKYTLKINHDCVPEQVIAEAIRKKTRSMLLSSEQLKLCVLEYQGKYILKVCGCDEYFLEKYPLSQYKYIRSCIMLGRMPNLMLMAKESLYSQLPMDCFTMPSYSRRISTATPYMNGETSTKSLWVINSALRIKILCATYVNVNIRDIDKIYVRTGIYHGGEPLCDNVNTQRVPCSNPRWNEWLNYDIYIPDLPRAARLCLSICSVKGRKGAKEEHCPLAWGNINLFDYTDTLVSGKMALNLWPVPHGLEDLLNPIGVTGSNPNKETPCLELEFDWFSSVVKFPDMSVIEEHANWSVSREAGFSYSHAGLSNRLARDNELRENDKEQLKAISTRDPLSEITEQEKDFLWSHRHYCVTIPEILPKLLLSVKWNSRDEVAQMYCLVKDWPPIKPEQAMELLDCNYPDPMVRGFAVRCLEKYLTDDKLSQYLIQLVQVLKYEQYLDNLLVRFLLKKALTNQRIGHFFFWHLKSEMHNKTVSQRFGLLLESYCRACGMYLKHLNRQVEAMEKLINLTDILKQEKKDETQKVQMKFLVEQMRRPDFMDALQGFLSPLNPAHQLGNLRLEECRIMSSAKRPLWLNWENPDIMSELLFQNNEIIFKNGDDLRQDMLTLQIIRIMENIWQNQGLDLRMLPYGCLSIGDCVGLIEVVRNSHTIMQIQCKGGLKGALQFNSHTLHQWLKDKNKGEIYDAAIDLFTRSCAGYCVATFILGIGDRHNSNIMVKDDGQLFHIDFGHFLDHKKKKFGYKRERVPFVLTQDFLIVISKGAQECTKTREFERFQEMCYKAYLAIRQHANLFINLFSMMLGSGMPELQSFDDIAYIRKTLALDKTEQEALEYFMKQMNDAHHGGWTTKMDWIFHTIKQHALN
# Sequence of UniProt P30530 (whole entry, looked up): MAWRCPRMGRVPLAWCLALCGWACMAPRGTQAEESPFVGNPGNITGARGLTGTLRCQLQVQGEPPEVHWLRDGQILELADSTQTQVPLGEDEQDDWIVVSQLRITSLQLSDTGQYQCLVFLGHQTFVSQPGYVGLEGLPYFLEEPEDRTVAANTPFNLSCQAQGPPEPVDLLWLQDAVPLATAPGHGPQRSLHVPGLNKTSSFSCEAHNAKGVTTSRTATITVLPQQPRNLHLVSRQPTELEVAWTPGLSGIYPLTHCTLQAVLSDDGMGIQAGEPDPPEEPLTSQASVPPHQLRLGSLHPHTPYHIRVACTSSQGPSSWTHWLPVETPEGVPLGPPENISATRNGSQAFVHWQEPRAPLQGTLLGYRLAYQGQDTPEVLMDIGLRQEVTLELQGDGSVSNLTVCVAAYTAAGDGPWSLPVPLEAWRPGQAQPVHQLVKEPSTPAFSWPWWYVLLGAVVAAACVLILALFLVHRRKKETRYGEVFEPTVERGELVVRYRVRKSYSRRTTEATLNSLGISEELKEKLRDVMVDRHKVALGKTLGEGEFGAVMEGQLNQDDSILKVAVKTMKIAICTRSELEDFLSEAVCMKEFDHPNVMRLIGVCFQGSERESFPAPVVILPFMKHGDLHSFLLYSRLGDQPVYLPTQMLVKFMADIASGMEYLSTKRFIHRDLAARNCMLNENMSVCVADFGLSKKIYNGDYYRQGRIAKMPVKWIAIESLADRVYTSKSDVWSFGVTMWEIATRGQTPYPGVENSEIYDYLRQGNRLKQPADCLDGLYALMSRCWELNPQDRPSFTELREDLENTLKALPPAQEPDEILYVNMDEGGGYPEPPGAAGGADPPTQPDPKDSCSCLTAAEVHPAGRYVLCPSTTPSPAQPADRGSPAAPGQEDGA

# Sample 1 — technique: competition with immobilised ligand; concentration: 1 µM
# Compound: CO[C@@H](C)c1c(Nc2ccc([C@@H](N(C)C(=O)C3CCS(=O)(=O)CC3)C(F)(F)F)cc2)cnc2cc(Cl)nn12
target,test,remaining binding [%]
"Myosin-IIIa (MYO3A, Homo sapiens, UniProt Q8NEV4)",cell-free assay,100
"PIK3CA (Homo sapiens, UniProt P42336, M1043I)",cell-free assay,100
"IRAK1 (Homo sapiens, UniProt P51617)",cell-free assay,82
"MAP4K2 (Homo sapiens, UniProt Q12851)",cell-free assay,100
"MAST1 (Homo sapiens, UniProt Q9Y2H9)",binding,29
"PIKFYVE (Homo sapiens, UniProt Q9Y2I7)",cell-free assay,65
"STK39 (Homo sapiens, UniProt Q9UEW8)",cell-free assay,50
"EGFR (Homo sapiens, UniProt P00533, G719C)",cell-free assay,98
"FLT3 (Homo sapiens, UniProt P36888)",cell-free assay,64
"PTK2B (Homo sapiens, UniProt Q14289)",cell-free assay,100
"ULK2 (Homo sapiens, UniProt Q8IYT8)",cell-free assay,92
"CDK17 (Homo sapiens, UniProt Q00537)",cell-free assay,100
"KIT (Homo sapiens, UniProt P10721, V559D)",cell-free assay,100
"MAP3K4 (Homo sapiens, UniProt Q9Y6R4)",cell-free assay,89
"NIM1K (Homo sapiens, UniProt Q8IY84)",cell-free assay,85
"ABL2 (Homo sapiens, UniProt P42684)",cell-free assay,84

# Sample 2 — Compound: CNc1cc2c(Nc3cccc(Br)c3)ncnc2cn1; observed: enzyme activity; mode: inhibitor; concentration: 0.5 µM; relative to: control
target,remaining activity [%]
"Cyclin-dependent kinase 4, with cyclin D3 (CDK4, Homo sapiens, UniProt P11802)",120
"HIPK4 (Homo sapiens, UniProt Q8NE63)",82.8
"RPS6KA5 (Homo sapiens, UniProt O75582)",92.3
"MAP4K4 (Homo sapiens, UniProt O95819)",86.9
"MAPKAPK3 (Homo sapiens, UniProt Q16644)",99.2
"Cyclin-dependent kinase 1, with cyclin B (CDK1, Homo sapiens, UniProt P06493)",104
"EPHB1 (Homo sapiens, UniProt P54762)",90.2
"EPHB4 (Homo sapiens, UniProt P54760)",99.6
"EPHA4 (Homo sapiens, UniProt P54764)",94.2
"BLK (Homo sapiens, UniProt P51451)",103
"DYRK3 (Homo sapiens, UniProt O43781)",84.4
"HIPK2 (Homo sapiens, UniProt Q9H2X6)",98.4
"RPS6KA6 (Homo sapiens, UniProt Q9UK32)",81.8
"TSSK2 (Homo sapiens, UniProt Q96PF2)",87.2
"STK17A (Homo sapiens, UniProt Q9UEE5)",98.4
"WNK3 (Homo sapiens, UniProt Q9BYP7)",97.4
"Cyclin-dependent kinase 6, with cyclin D3 (CDK6, Homo sapiens, UniProt Q00534)",90.8
"AXL (Homo sapiens, UniProt P30530)",98.6
"ABL1 (Homo sapiens, UniProt P00519)",89.8
"STK16 (Homo sapiens, UniProt O75716)",98.6
"SRMS (Homo sapiens, UniProt Q9H3Y6)",100
"PDPK1 (Homo sapiens, UniProt O15530)",97.7
"PRKACG (Homo sapiens, UniProt P22612)",115
"PHKG1 (Homo sapiens, UniProt Q16816)",91.4
"CAMK2B (Homo sapiens, UniProt Q13554)",95.8

# Sample 3 — cell line: mouse MPNST tumor cells; technique: high-content immunofluorescence imaging; measured: nuclear SOX9; concentration: 10 µM; time: 12 h; notes: mean of 2 replicates; relative to: DMSO control; direction: higher = more nuclear SOX9
SMILES,nuclear SOX9 intensity
Cc1oncc1C(=O)Nc1ccc(C(F)(F)F)cc1,119 % of DMSO and 131 % of DMSO
Cc1cn[nH]c1,106 % of DMSO and 98.7 % of DMSO
CC(NC(=O)Cc1cc(F)cc(F)c1)C(=O)NC1C(=O)N(C)c2ccccc2-c2ccccc21 (centres unmarked),109 % of DMSO
CCOc1nc2cccc(C(=O)O)c2n1Cc1ccc(-c2ccccc2-c2noc(=O)[nH]2)cc1,92.5 % of DMSO
COc1ccc(S(=O)(=O)Nc2cccnc2Nc2ccc(O)cc2)cc1,197 % of DMSO
C[C@H]1C[C@H]2[C@@H]3CCC4=CC(=O)C=C[C@]4(C)[C@@]3(F)[C@@H](O)C[C@]2(C)[C@@]1(O)C(=O)CO,79.7 % of DMSO
CCCC(C)NC(=O)c1ccc(Cl)c(Cl)c1 (centres unmarked),113 % of DMSO
O=C(Nc1ccccc1)Nc1ccc(-c2ccc(C(=O)[C@@H]3CCC[C@H]3C(=O)O)cc2)cc1,101 % of DMSO
O=C1NC(=O)c2c1c(-c1ccccc1)cc1[nH]c3ccc(O)cc3c21,163 % of DMSO
N#CN=C(NCCCCCCOc1ccc(Cl)cc1)Nc1ccncc1,117 % of DMSO
NC(=O)c1ccc(Oc2ccc(C(N)=O)cc2)cc1,94.9 % of DMSO

# Other studies, line by line
SMILES,target,test,endpoint,result
C[C@@H]1CN(c2ccc(-c3cc(C(=O)NCCOCCOCCOCCOCCNC(=O)/C=C/c4[nH]cc(C(=O)N[C@@H](CC(N)=O)c5ccc(F)c(Cl)c5)c4-c4ccc(Cl)cc4F)ccc3F)cc2NC(=O)c2c[nH]c(=O)cc2C(F)(F)F)C[C@H](C)N1C,"DDB1- and CUL4-associated factor 1 (DCAF1, Homo sapiens, UniProt Q9Y4B6)",SPR,association rate constant,198000 M⁻¹ s⁻¹
